Measured values gathered from unrelated publications.
Every numbered part comes from another study and shows a few of its results, in no order. Positions count from the first letter of the parent shown.

Study 1 — method: protein-binding microarray; form: double-stranded DNA, one strand shown; medium: in vitro; concentration: not given; reading: higher = stronger binding
Target: Transcriptional repressor CTCF (CTCF, Homo sapiens, UniProt P49711, residues 1-727, full length assumed)
Notes: k-mer, scored over probes, only values ≥0.25
Residues (chain): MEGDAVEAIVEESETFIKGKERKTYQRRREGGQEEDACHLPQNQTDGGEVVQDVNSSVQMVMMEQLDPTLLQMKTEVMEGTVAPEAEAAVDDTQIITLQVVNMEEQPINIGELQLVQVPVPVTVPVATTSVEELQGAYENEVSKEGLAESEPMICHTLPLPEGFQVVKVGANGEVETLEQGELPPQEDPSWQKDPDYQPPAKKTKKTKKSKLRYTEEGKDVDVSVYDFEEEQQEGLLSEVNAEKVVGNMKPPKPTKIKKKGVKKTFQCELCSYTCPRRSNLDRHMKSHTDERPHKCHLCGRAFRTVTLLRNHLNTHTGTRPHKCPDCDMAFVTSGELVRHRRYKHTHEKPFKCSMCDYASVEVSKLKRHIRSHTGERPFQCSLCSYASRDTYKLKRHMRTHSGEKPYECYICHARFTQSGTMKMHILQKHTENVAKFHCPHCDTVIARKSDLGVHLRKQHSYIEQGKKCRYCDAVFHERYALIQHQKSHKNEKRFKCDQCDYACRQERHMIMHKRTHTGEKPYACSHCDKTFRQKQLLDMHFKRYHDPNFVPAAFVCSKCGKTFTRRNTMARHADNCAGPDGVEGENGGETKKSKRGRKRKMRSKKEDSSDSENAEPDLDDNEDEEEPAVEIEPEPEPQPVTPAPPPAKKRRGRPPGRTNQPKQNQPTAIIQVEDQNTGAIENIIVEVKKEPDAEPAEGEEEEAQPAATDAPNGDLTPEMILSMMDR
Oligonucleotide	E-score
ATGCGCCC	0.379
AAATGATA	0.368
CGCGCACA	0.295
ACCCATAT	0.292
AATTACGC	0.268
TACGCATA	0.31
AGGTTGTA	0.284
AATACTAT	0.286
AAATCCAT	0.257
ACATATGT	0.337
CTAGTGGC	0.369
GGAATTAA	0.278
ACATAATC	0.267
GTGCGCAA	0.298
TAATAACA	0.343
CGTGCGCA	0.362
CTATATAC	0.281
CTGCGCGC	0.308
GGGCGCTA	0.285

Study 2 — method: RNA Bind-n-Seq; form: RNA; medium: in vitro; concentration: 365 nM; relative to: no-protein control; reading: higher = stronger binding
Target: RNA binding protein fox-1 homolog 2, RRM domain, GST-SBP tag (RBFOX2, Homo sapiens, UniProt O43251-10, residues 100-194)
Notes: natural RNA segment, single round, ends assumed
Shared flanks, not repeated: GGGAGUUCUACAGUCCGACGAUC … UGGAAUUCUCGGGUGCCAA
Construct (chain): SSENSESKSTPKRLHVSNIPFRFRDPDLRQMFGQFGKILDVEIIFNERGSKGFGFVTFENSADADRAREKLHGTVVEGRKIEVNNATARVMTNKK
Oligonucleotide	RBNS enrichment (R)
CCUGGUUCUCAUAUAUGCUGUGUAGACAAUGUUCUACAGUUAUGGCAAUAAAGAUAGAUUACAUCGCAGAUCACUGGCUUCCGCUGUCUCUUUGGCUUAUAUUCCCCUAG	0.315
GGGUGUGCUGGGGCAAGCAUCCUGAGACUCCUGUCUCCUGCAGAGGCCCUCCUUCCUGAAGACAGUCAGCCUGGGGCUCUUACCCUGAGACAAUGAGGGCCGCAUGAAGA	7.69
UUCUCUAGUUCGUUGGUUUUUAACAUGAAGGUGUCUUUGGGGAGGACCUGGAUCAUGCUACCUGUGUUUAAAAAUAAUGCGCUUUGCCUAACCUUCAGCCGAAUGUAACU	1.06
UCUGUUUGUCUUUUCUACCUCUUUCUCUUGCAGUGAUAGACUGAGGGGGUAAAAUCAAGAGAAAAAACUCUCAGGAAUCAAGGAACAUAAUCCUGUGGAGGGUAAUCCAU	0.413
UUUAAAUGUAGUUUGUAUUGUACUGGGGGACCUUUCGUUGUUGUUGUUUGCUUAAACUGUGAUUUUUUUUCCCCUCCCUAAUUUCAGGGGUGAGAUUGACUUUGGGAAGA	9.7
AUGGUGCAUAGGUCUGGAAGGUCUGAUCUCCCUUGGUCUUCCAUGGGAUGGUUAGUGUGGAGGGGAGAUAUAGAUUGUCCGGCCGCUUUGUGAUUCCAUGGAUUGAUUCA	0.951
UUUAAACUGUUUUUUGCUUUUGCUUUUCCCUGACUCCCUUUGCUUGGAGUCAGCUGCACACCAGUAGUAUGGCAUGCUACGAUCAGGUUCUGUCCUGAAAGCUUUGCCUC	1.39
GAGAGCGCACAAUAGCUACUGAACAAGCUGUGACUGAACUGUACAUAGACCUGAGAGGAGCAGAGAAGGAACACUACAUUCUCUAACGUUCUGUUAACCUUUGUACCAAA	0.271
CUGGCACCUGGUUUCUGUUCUGUUGAUCCCACUUCACUGUGAGGGGAAGGCCUUUUCACGGGAACUCUCCAAAUAUUAUUCAAGUGCCUCUUGUUGCAGAGAUUUCCUCC	0.485
GUCCUUCAUUUGGCCAGCUAACAUUCUGUCGAGCACCUGCAUUGUGCUGGAUUCAUGCUUCCAGAUGUGAGAUGUGUGUUCUAAUCUGACAGUGUGUUUUGUAAUCUGUC	0.957
UAUUACAAGUACUUGGAUUGUUCCUUAGUCAUUAAAUAGGAUAUAAAUUAGGUUGAGAAGGGGGUAUCACAACCUCAAGAAAAGUGCCACUUAAAGCAUUGCUUUUAGGU	0.64
AUGCCCUGUAAACACUCUCUCAGCAGAACAAGGACAAAGUGCCGUGUCUGAGAGAGAGUGCCACACCUUGUAGGGACUGGCAGGAAACAGGUCAGGGCCUUCCCCAGAGC	0.293

Study 3 — method: RNA Bind-n-Seq; form: RNA; medium: in vitro; concentration: 200 nM; notes: whole 134-nt RNA, ends assumed; added: 150 mM KCl; relative to: input library; reading: higher = stronger binding
Target: Ras GTPase-activating protein-binding protein 1, full length (G3BP1, Homo sapiens, UniProt Q13283)
Sequence of UniProt Q13283 (whole entry, looked up): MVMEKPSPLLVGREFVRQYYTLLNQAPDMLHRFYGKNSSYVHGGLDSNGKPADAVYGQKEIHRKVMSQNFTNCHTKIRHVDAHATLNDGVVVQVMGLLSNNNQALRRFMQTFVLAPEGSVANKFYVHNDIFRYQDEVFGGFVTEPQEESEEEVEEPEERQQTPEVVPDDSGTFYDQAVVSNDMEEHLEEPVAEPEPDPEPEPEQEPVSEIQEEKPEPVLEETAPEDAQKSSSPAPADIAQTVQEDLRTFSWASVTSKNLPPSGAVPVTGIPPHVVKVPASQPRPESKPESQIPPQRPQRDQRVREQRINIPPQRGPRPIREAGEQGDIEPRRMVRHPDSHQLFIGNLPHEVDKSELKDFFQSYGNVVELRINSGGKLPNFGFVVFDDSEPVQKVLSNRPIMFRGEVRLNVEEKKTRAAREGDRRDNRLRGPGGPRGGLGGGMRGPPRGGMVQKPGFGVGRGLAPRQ
Shared flanks, not repeated: GGGAGUUCUACAGUCCGACGAUC … UGGAAUUCUCGGGUGUCAAGG
Oligonucleotide	log2 enrichment
UUGUUUAUUCUGUGUCUUUUGCCUCCUUUCCUACAGAUGUCCGGCAGGAUAAUGCUGCUGGCAGAGCUGGCUCCAGUAGCCUUACACAGG	0.375
AAACAGCUCUAUAACAAAAUACAAUGCGGGUUCAUGUUAAUGUUUUUAUCUCUAACAGGUUGGUUUCAGUGCUGAUGAAACUUGGGACUC	-0.948
AAGUCCUGUGCUACACAUCGUAUGUACCGAAUCGGGGCCCGGGGCCCGGGCCCGGGAAAGUAUUAUGUUACGCCGUUCGGAUCUGCACUU	-1.14
UAACUUUAGAUGAGGAUCUGAUGGAUAUGGCAGUGGACGUGGAUUUGGGGAUGGCUAUAAUGGGUAUGGAGGAGGACCUGGAGGUGGCAA	0.215
AGUCCUGUGCUACACAUCGUAUGUACCGAAUCGGGGAAAAGGGAAAAGGAAAAGGGGAAAGUAUUAUGUUACGCCGUUCGGAUCUGCACU	0.158
UGGAGAUGACAGAAAUGACUGGUGUGUCGCUGAAACGUGGGGCACUGGUUGUCGAAGAUAAUGACAGUGGAGUCCCAGUUGAAGAGACAA	-1.92
CACAGACAACACGCACCCACACAGACCCAGAGGGAAGGGGUUGGGAUGGGGACAGGGUGCACAGCAGGGCGGGGUAGGACCCCAGCCCCU	1.82
AGUCCUGUGCUACACAUCGUAUGUACCGAAUCGGUUUUUGGUUUUUUUGGAAAAAGGAAAGUAUUAUGUUACGCCGUUCGGAUCUGCACU	-1.52
UAGAGACUUCAGAUGGAUUUUAAAAUUGAACACACUUGGGAUGGUUUUCCAGUGAAGCAUGAGCCCGUAUUUAUCAGGCUGAAUCCAGGU	-1.41
AAGUCCUGUGCUACACAUCGUAUGUACCGAAUCGGGAAAAGGGAAAAGGGAAAAGGAAAGUAUUAUGUUACGCCGUUCGGAUCUGCACUU	-0.771
CUCAAGUCCUGUGCUACACAUCGUAUGUACCGAAUCGGGUUGGGGUUGGGUUGGAAAGUAUUAUGUUACGCCGUUCGGAUCUGCACUUCC	0.297
GCAGGAAGUAAAAACAAAUGGAAAUGCUUCGGAUAGUGGCAGGGGUGGGGGUUGCUAAGGAAAGGGUGGGAUAAAAGUGGGUAAAGAGUU	0.683
CAAGUCCUGUGCUACACAUCGUAUGUACCGAAUCGGGAAAAGGAAAAGGGAAAAGGAAAGUAUUAUGUUACGCCGUUCGGAUCUGCACUU	-0.878
CAAGUCCUGUGCUACACAUCGUAUGUACCGAAUCGGUUUGGUUUUUUUGGUUUGGAAAGUAUUAUGUUACGCCGUUCGGAUCUGCACUUC	-1

Study 4 — method: protein binding microarray; form: double-stranded DNA, one strand shown; medium: in vitro; concentration: not given; relative to: not given; reading: higher = stronger binding
Target: Histone acetyltransferase KAT6A, winged helix 2, GST fusion (KAT6A, Homo sapiens, UniProt Q92794, residues 85-181)
Notes: 8-mer, flanks averaged, mean of 2 arrays, mostly near background
Residues (chain): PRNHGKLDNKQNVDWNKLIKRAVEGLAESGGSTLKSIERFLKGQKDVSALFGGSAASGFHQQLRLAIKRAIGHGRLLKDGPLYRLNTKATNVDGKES
Oligonucleotide	E-score
AATGCGGA	0.0143
AACACGCC	-0.0746
CTGGGACA	0.0718
GACAGCAC	0.068
AACGGTCG	0.0681
GAGGGTAC	-0.148
CCGGTCAA	0.132
CGGATATA	0.126
CCATCCGC	0.197
GAGTAAGA	0.163
AGATCGAT	-0.133
TCAAGAGA	-0.124
CCTCTGGA	0.0767
CAATGTGG	-0.17
CGCAATAA	0.0349
AAGCGTAT	-0.0745
AATGCGGC	-0.0224
GAGTGACA	0.163
TCTGCCCA	0.0125
CCTGTGGA	-0.0272
CTGCCGTA	0.000215

Study 5 — target: CCND2, cyclin fold, Cln2 fusion (human); method: yeast growth competition, sequencing; medium: yeast; notes: strong parent motif; relative to: not given; reading: higher = stronger binding
Starting sequence: E2F1 docking peptide (human); PPVKRRLDFETDH; partner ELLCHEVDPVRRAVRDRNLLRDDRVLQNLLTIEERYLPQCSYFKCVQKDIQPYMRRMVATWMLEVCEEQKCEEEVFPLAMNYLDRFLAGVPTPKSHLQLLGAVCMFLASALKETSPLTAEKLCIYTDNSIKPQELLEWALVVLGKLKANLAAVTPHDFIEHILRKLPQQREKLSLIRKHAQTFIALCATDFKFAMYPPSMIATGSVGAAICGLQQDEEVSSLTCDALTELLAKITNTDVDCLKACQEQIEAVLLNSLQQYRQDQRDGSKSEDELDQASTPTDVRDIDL
Substitution	normalised enrichment score
R6E	0.692
L7V	0.368
D8I	1.94
E10L	1.16
R5S	-0.185
D8G	0.317
P2I	1.04
T11A	1.68
R6V	1.21
R6L	0.668
E10K	1.25
F9V	0.204
E10C	1.79
T11N	2.12
L7N	0.0985
K4G	1.14
